Published values of several laboratories.
Numbered parts are unrelated; each lists some results of a single study. Positions count from the first letter of the parent shown.

Series 1
Target: Prothrombin, mature alpha-thrombin (F2, Homo sapiens, UniProt P00734)
Technique: aptamer microarray, sandwich
Molecule type: DNA with 2'F-ANA
Sample: in vitro
Concentration: 200 nM
Notes: whole 15-mer aptamer, many near background
With: Cy3 exosite-II aptamer, 400 nM
Reading: higher = stronger binding
Oligonucleotide: GGTTGGTGTGGTTGG
| Modification | mean fluorescence intensity [a.u.] |
| --- | --- |
| 2'F-ANA at 1 2 8 9 13 14 | 50.1 |
| 2'F-ANA at 1 2 3 4 8 9 10 12 14 | 53.8 |
| 2'F-ANA at 1 2 3 4 6 7 10 | 77.4 |
| 2'F-ANA at 1 2 3 9 10 11 13 15 | 84.9 |
| 2'F-ANA at 1 2 3 4 9 10 15 | 73.3 |
| 2'F-ANA at 4 6 7 8 9 10 | 128 |
| 2'F-ANA at 2 5 8 10 11 13 15 | 48.6 |
| 2'F-ANA at 3 6 8 10 12 15 | 580 |

Series 2
Target: Ras GTPase-activating protein-binding protein 1, full length (G3BP1, Homo sapiens, UniProt Q13283)
Sequence of UniProt Q13283 (whole entry, looked up): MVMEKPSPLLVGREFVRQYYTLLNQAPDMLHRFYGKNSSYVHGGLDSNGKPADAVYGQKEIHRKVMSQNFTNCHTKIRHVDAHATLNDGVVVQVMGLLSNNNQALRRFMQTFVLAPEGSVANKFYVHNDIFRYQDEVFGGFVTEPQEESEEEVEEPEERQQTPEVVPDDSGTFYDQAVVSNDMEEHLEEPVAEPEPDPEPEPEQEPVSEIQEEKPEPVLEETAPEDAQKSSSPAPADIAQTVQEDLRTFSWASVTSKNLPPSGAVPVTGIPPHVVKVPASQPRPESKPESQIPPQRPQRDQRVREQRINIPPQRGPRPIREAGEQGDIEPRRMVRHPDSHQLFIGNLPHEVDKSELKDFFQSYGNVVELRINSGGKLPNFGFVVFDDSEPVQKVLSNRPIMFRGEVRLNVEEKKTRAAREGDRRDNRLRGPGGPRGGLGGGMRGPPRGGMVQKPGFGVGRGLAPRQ
Technique: RNA Bind-n-Seq
Molecule type: RNA
Sample: in vitro
Concentration: 200 nM
Notes: whole 134-nt RNA, ends assumed
With: 150 mM LiCl
Baseline: input library
Reading: higher = stronger binding
Library: 7-deaza-guanosine replaces G
All sequences stand within: GGGAGUUCUACAGUCCGACGAUC … UGGAAUUCUCGGGUGUCAAGG
| Oligonucleotide | log2 enrichment |
| --- | --- |
| CACAGACAACACGCACCCACACAGACACAGAGGGAAGGGGUUGGGAUGGGGACAGGGUGCACAGCAGGACGGGGUAGGACCCCAGCCCCU | 0.0683 |
| AGUCCUGUGCUACACAUCGUAUGUACCGAAUCGGAAAAAAAGGAAAAAAAGGUUUGGAAAGUAUUAUGUUACGCCGUUCGGAUCUGCACU | -3.42 |
| AGUCCUGUGCUACACAUCGUAUGUACCGAAUCAAACCCCCAAAUUUUUAAACCCAAAAAAGUAUUAUGUUACGCCGUUCGGAUCUGCACU | 1.68 |
| CUGUGCUACACAUCGUAUGUACCGAAUCAAAUUUUUUUAAAUUUUUUUAAACCCCCCCAAAAAAGUAUUAUGUUACGCCGUUCGGAUCUG | 1.04 |
| UCCUGUGCUACACAUCGUAUGUACCGAAUCGGUUUUUUUGGAAAAAAAGGAAAAAAAGGAAAGUAUUAUGUUACGCCGUUCGGAUCUGCA | -2.04 |
| GUCCUGUGCUACACAUCGUAUGUACCGAAUCGGGUUUUUGGGAAAGGGAAAAAAAGGGAAAGUAUUAUGUUACGCCGUUCGGAUCUGCAC | -0.598 |
| CCUGUGCUACACAUCGUAUGUACCGAAUCGGGGUUUUUUUGGGGUUUUUGGGGAAAGGGGAAAGUAUUAUGUUACGCCGUUCGGAUCUGC | 0.654 |
| ACCAUGCAGGUGGGCAUCUUUGGGAAGUGGGGCAAGGGGGGGAUAGGGAGGGGGGUAACACUUUGGGAACAGGUGGUCCCUGGUCGUUUC | 0.302 |

Single results of other studies
P1: viral docking peptide; TSVRRALFTGGSD; partner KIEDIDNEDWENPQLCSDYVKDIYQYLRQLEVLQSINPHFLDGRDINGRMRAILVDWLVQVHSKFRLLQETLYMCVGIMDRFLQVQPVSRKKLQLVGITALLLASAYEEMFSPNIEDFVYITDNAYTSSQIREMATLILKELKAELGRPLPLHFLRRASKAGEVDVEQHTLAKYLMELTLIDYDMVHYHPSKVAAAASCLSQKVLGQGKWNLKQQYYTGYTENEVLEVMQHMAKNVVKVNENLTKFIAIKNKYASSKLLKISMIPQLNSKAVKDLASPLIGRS
| Substance | target | test | test system | setting | scale | quantity | result |
| --- | --- | --- | --- | --- | --- | --- | --- |
| P1 S12L | CCNB2, cyclin fold, Cln2 fusion (human) | yeast growth competition, sequencing | yeast | strong parent motif | baseline: not given, higher = stronger binding | normalised enrichment score | 0.597 |
| PMQQLTQPL | HLA class I histocompatibility antigen, A alpha chain, allele A*80:01 (Homo sapiens, UniProt P04439) | peptide-MHC binding | peptide | concentration not given |  | binding | inactive |
